# Experimental data of several laboratories.
# A part holds a random share of what one study measured. Changes are numbered by the printed parent chain.

# Set 1
# Target: RING finger protein unkempt homolog, zinc fingers 1-6, GST-SBP tag (UNK, Homo sapiens, UniProt Q9C0B0, residues 30-357)
# UniProt Q9C0B0, sequence (30-357, looked up): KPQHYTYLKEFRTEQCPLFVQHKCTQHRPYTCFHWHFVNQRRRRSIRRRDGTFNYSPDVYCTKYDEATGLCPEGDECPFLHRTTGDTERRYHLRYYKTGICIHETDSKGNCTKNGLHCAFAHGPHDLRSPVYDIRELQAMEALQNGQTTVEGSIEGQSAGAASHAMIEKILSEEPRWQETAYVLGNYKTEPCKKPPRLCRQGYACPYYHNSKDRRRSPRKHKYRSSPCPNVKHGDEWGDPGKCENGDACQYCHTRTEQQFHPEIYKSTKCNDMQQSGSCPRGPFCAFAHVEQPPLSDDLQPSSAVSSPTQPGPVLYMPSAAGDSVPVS
# Technique: RNA Bind-n-Seq
# Form: RNA
# Medium: in vitro
# Tested at: not given
# Setting: RNA with constant flanks, human-mouse chimeric sites, ends assumed
# Baseline: input RNA pool
# Reading: higher = stronger binding
# Shared flanks, not repeated: GGGAGUUCUACAGUCCGACGAUC … CAACAGAGGAUUGAGCAUCA
Oligonucleotide,bound/input enrichment [ratio]
GUCAACAGCUGCCUCAACCCCAUCCUCUACGCCUUCCUGGAUGAGAACUUCAAGGCCUGCUUCCGCAAGUUCUGCUGUGCAUCUGCCCUGCACCGGGACGUGCAGGUGUCUGACCGCGUG,0.316
UCUUUAAAAAAAAAAUUACCUUUUCUGACAGUGCUUUCCCUCCCAUAGAUCCACGUUCACACUAGAAGAGCAAAGGCUUUGCACGGAGCUCAAACAUAAAAGAAAGAAAGAUUUCUGAGA,2.83
CAGCGCCGAGGCCGCGGUUUCCCCCUGGGCCUCCCCAGCAGCAGCCAUGGGCAUCAAAUUUUUAGAAGUUAUUAAACCAUUCUGUGCAGUUCUACCAGAAAUUCAGAAGCCUGAAAGGAA,6.72
UAAGUUAAGCUUUUAAUUAAGUUAUUUUCUUAACAUUUUUAUAUUGCCAUGUUUAUUUUGUUUGGGUAAUUUGGUUCAUUAAGUACAUAGCUAAGGUAAUGAACAUCUUUUUCAGUAAUU,0.4
UUAAUCCCCUUUACUGCUCCCCCACUUCUCAUGGUAAUGACAAAAACUUAUAUUCCCGUCCUAGCUUUCACUCAGAUGGCUUAUGGAGCCGGUUUCCUAGCUUUCUUGGGAGGGAUCAGA,0.346
AAAGAGAAACUAAAGCAAACUGAUUGAAAGAGGAUUGGCAAAGAGAAAUUUCAUAGAAAACUAGGAUUUAUUAGCAAACAUGAGUUAUAUUCCAGAGCGUCUCAGAAACCCCAGCCAAAC,12.7

# Set 2
# Target: CCNA2, cyclin fold, Cln2 fusion (human)
# Technique: yeast growth competition, sequencing
# Medium: yeast
# Setting: strong parent motif
# Baseline: not given
# Reading: higher = stronger binding
# Starting sequence: E2F1 docking peptide (human); PPVKRRLDLETDH; partner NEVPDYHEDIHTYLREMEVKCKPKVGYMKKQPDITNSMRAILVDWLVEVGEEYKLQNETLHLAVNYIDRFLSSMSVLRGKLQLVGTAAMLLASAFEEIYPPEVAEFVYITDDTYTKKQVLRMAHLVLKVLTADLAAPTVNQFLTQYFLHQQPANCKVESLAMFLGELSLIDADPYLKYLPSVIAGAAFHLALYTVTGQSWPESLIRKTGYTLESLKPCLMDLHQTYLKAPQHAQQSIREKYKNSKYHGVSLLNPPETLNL
Change,normalised enrichment score
P1A,4.55
H13R,4.03
P1H,4.95
K4H,2.18
T11K,4.21
E10Q,4.49
R5H,-0.147
V3R,0.977
P1T,3.58
R6D,-1.03
T11H,3.57

# Set 3
# Target: UBE2J2 UBC core domain (UniProt Q8N2K1)
# Technique: yeast two-hybrid
# Medium: yeast
# Setting: mostly zero background
# Baseline: not given
# Reading: higher = stronger interaction
# B1: RNF166 RING domain (UniProt Q96A37); chain GDSGLEAQYTCPICLEVYHRPVAIGSCGHTFCGECLQPCLQVPSPLCPLCRLPFDPKKVDK
# B2: RNF31 RING domain (UniProt Q96EP0); chain AFLRRLLAQECAVCGWALPHNRMQALTSCECTICPDCFRQHFTIALKEKHITDMVCPACGRPDLTDDTQLL
# B3: RNF183 RING domain (UniProt Q96D59); chain EQQGRELEAECPVCWNPFNNTFHTPKMLDCCHSFCVECLAHLSLVTPARRRLLCPLCRQPTVLASGQP
# B4: RNF187 RING domain (UniProt Q5TA31); chain ALPAGPAEAACALCQRAPREPVRADCGHRFCRACVVRFWAEEDGPFPCPECADDCWQRAVEP
# Target sequence (chain): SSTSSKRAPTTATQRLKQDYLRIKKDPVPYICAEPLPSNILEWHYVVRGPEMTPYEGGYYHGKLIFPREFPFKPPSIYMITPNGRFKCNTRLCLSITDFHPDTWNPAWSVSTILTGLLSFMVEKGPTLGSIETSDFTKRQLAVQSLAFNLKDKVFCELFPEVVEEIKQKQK
Sequence,lacZ reporter activity
MNDVLENELQCIICSEYFIEAVTLNCAHSFCSYCINEWMKRKIECPICRKDIKSKTYSL (RNF8 RING domain (UniProt O76064)),0
B1 (RNF166 RING domain),0
RYRQMEERITCPICIDSHIRLVFQCGHGACAPCGSALSACPICRQPIRDRIQIF (MIB2 RING domain (UniProt Q96AX9)),0
B2 (RNF31 RING domain),2750
B3 (RNF183 RING domain),0
YPEEVDDDLICHICLQALLDPLDTPCGHTYCTLCLTNFLVEKDFCPMDRKPLVLQHCKK (LNX1 RING domain (UniProt Q8TBB1)),0
B4 (RNF187 RING domain),0

# Set 4
# Target: Histone acetyltransferase KAT6A, winged helix 2, GST fusion (KAT6A, Homo sapiens, UniProt Q92794, residues 85-181)
# Technique: protein binding microarray
# Form: double-stranded DNA, one strand shown
# Medium: in vitro
# Tested at: not given
# Setting: 8-mer, flanks averaged, mean of 2 arrays, mostly near background
# Baseline: not given
# Reading: higher = stronger binding
# Construct (chain): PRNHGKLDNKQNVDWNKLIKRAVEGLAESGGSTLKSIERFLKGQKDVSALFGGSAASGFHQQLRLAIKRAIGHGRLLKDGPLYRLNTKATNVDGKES
Oligonucleotide,E-score
CAGCCGCA,0.161
AAGGCTAA,0.0302
AACACCAG,0.0321
ATTGACCC,0.127
GGACCACA,0.0521
CGAAGAGA,0.123
AAGCGTTC,-0.0848
AGGTTGTG,-0.0358
GAGGGGAA,0.195
AACTTCCC,-0.0912
CAAAAATG,0.0237
ACTTAGTC,-0.221
TAGTAAAA,0.1
ATCAGCAA,0.188
CCCCAGTA,-0.134
CGGGTACG,0.0988
CGGGCGTA,-0.092
AGTCGGCA,-0.0338
ACCGTACA,-0.147

# Set 5
# Target: Sal-like protein 4, full length isoform A (SALL4, Homo sapiens, UniProt Q9UJQ4, residues 1-1053)
# UniProt Q9UJQ4, sequence (whole entry, looked up): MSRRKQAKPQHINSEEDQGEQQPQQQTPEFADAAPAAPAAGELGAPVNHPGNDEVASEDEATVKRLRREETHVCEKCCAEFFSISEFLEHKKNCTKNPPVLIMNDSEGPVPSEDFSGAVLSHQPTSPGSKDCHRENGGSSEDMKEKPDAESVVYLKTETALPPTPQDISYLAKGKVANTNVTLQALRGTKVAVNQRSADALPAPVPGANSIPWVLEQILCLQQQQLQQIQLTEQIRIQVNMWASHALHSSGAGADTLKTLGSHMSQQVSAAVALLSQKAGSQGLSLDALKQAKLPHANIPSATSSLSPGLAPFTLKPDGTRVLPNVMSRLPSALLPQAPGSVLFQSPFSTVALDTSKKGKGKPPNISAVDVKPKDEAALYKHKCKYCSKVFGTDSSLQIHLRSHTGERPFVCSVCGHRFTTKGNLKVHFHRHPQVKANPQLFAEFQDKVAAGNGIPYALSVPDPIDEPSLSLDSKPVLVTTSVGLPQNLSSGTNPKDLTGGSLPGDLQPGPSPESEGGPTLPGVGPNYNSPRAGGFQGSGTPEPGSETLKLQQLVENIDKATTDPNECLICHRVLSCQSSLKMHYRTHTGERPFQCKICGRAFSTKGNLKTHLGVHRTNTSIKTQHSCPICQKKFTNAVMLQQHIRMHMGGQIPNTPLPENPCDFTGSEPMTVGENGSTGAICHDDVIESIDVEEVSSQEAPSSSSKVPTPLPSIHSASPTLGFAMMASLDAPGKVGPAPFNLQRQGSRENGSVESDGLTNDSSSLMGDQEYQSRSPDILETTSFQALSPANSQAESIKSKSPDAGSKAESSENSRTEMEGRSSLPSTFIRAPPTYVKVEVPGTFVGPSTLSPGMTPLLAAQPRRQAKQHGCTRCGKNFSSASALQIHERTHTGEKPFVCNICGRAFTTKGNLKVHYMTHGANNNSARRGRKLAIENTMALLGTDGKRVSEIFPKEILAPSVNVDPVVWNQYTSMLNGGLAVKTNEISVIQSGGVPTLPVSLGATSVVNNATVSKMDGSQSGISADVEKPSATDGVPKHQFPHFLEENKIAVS
# Technique: universal PBM
# Form: double-stranded DNA, one strand shown
# Medium: in vitro
# Tested at: 600 nM
# Setting: 8-mer, flanks averaged, mean of replicates
# Reading: higher = stronger binding
Oligonucleotide,E-score
ACTAGTCC,-0.044
GACCTCTC,-0.213
AAGCGCGC,-0.191
TATCGACA,0.0391
ACAAAGTA,0.211
GAATGTCA,-0.0265
GTCGAAAA,0.0289
CGAGCGGA,-0.285
AATATTGG,0.317
GATAAAAC,0.238
ACGAGCCC,-0.234
ATATCGAA,0.271
ACTCGTTC,0.062
AAAACTAG,0.149
AGCTTGCA,-0.0177
TGGCGCAA,0.0475
TCACAACA,0.184

# Set 6
# Target: ABI1, truncated, D143A, DHFR fusion (Arabidopsis thaliana)
# Technique: DHFR PCA, deep sequencing
# Medium: yeast
# Setting: methotrexate growth selection, single substitutions
# Added: (+)-ABA 0.11 µM
# Baseline: wild-type fitted maximum
# Reading: higher = stronger binding
# Starting sequence: PYL1, truncated, DHFR fusion (Arabidopsis thaliana); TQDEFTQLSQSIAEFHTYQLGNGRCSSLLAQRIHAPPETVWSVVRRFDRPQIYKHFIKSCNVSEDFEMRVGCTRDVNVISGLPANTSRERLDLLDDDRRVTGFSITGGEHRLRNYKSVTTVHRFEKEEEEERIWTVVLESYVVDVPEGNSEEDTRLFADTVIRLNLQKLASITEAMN; partner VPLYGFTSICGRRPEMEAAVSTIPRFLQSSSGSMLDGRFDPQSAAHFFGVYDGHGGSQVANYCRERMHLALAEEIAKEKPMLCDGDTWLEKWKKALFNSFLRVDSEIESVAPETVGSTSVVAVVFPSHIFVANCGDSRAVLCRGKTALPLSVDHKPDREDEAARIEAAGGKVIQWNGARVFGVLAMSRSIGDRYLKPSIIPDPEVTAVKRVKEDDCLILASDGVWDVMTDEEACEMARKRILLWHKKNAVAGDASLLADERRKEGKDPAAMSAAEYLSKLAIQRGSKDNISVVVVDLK
Change,relative binding score
T173R,2.4%
M68Q,1.26%
E67P,6.24%
T120K,-8.56%
D65S,16.8%
Y115K,-0.971%
G102L,-3.81%
I33T,-0.975%
Q19V,24.3%
G148W,2.93%
G81Q,7.86%
G108K,0.0238%
Q10W,4.71%
I133N,43%

# Set 7
# Target: PABPC1L2, full length, GST fusion (mouse, UniProt A0ABA7IW68)
# Technique: RNAcompete
# Form: RNA
# Medium: in vitro
# Tested at: 20 nM
# Setting: 7-mer, probes averaged, single round
# Baseline: mean of 7-mers
# Reading: higher = stronger binding
Oligonucleotide,7-mer Z-score
UCUUAUU,-0.304
AGCCUGG,-0.132
UUGUAAC,-0.264
GCGAGUG,0.0714
UUGAGUU,-0.378
UAGUCGC,-0.331
CUUUCCC,-0.367
UGGCGGC,0.0152
CCUCUGC,-0.394
GUCACCC,-0.306
GCGCCUU,-0.345
UGUUAGU,-0.34
CUCUUCU,-0.478
GAUUGAA,-0.0754
CCUAACC,-0.345
GCGGCUA,-0.0591
AACCGGU,0.0189
AUGCUCA,-0.211
AUCUAGU,-0.211
GAACCCG,-0.173
ACCAGGU,-0.0754
UGCAUAA,0.146

# Repeated from above (set 6):
Change,relative binding score
E67P,6.24%
T120K,-8.56%
D65S,16.8%
Y115K,-0.971%
G102L,-3.81%
I33T,-0.975%
